Measured values collected from several papers.
Parts stem from different laboratories: compare values within a part only. Substitutions count along the parent as printed.

Sample 1 — method: protein-binding microarray; form: double-stranded DNA, one strand shown; matrix: in vitro; concentration: 250 nM; setting: 60-bp whole probe; together with: salmon DNA 0.4 mg/ml; relative to: random background probes; reading: higher = stronger binding; shared flanks, not repeated: GCCTAGCAC … GTCTTGATTCGCTTGACGCTGCTG
Target: Interferon regulatory factor 7, full length, phosphomimetic (IRF7, Homo sapiens, UniProt Q92985, residues 1-503, S101K/S471D/S472D/S475D/S476D/S477D/S483D/S484D/S487D)
Residues (chain): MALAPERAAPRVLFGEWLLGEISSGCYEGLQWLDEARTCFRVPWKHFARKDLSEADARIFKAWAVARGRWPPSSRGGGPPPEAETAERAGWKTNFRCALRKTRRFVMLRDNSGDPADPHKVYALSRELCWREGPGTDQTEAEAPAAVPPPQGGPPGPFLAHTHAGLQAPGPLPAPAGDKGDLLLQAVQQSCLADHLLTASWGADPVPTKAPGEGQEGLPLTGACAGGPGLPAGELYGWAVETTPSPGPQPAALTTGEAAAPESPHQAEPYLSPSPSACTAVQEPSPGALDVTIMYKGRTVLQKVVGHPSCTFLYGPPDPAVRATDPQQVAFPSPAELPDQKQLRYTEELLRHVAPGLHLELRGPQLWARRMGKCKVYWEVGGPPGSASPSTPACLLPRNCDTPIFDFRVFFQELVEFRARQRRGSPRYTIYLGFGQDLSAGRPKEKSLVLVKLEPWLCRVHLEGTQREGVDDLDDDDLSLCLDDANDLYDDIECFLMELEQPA
Oligonucleotide	log fluorescence [z-score]
ATGTGTTTACATATGTTTTTGTGCTAG	0.431
GACGGTCTCGGAGTGGGGACGTGCTAG	-0.295
GACGCTATCGGGACTGGAGACGTGCTA	-0.476
CTTTACATGGGTTTTCAGCTGGTGCTA	0.158
GACGAATCCAGTTTCGAGACGTGCTAG	4.82

Sample 2 — target: CCNA2, cyclin fold, Cln2 fusion (human); method: yeast growth competition, sequencing; matrix: yeast; setting: strong parent motif; relative to: not given; reading: higher = stronger binding
Starting sequence: ORC1 docking peptide (human); PRARKRLELGNLG; partner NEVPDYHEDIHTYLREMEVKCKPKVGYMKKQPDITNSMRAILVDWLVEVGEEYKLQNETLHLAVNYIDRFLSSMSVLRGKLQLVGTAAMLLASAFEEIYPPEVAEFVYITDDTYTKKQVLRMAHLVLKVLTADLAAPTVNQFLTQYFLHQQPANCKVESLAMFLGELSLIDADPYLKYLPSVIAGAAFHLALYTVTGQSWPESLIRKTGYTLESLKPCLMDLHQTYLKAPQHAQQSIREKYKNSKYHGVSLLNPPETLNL
Change	normalised enrichment score
R6W	0.96
L9C	1.13
K5A L7A	0.518
G10V	3.64
G13I	3.75

Sample 3 — method: RNA Bind-n-Seq; form: RNA; matrix: in vitro; concentration: not given; relative to: input RNA pool; reading: higher = stronger binding
Target: RING finger protein unkempt homolog, zinc fingers 1-6, GST-SBP tag (UNK, Homo sapiens, UniProt Q9C0B0, residues 30-357)
Sequence of UniProt Q9C0B0 (30-357, looked up): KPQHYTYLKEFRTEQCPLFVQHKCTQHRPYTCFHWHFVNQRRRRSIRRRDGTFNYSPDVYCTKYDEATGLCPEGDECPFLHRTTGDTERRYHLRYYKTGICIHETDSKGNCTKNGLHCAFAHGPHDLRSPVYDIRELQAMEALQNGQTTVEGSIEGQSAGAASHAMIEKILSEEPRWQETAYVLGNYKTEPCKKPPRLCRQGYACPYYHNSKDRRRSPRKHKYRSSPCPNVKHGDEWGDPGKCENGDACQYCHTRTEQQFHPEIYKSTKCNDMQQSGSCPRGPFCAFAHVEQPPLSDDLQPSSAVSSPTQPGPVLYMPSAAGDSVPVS
Setting: RNA with constant flanks, human and mouse sites, ends assumed
Shared flanks, not repeated: GGGAGUUCUACAGUCCGACGAUC … CAACAGAGGAUUGAGCAUCA
Oligonucleotide	bound/input enrichment [ratio]
AUCAUCGAGGCAUUUUAUGGAGGCUCCCAUCGACAGCUGGUAGAGCUGCUCCGAGAAGAAUUAGAUGACUGCGUGUUGUACACUCUUCCUGCAAAGAAAUGGCACUGGAGAGCACGCACA	0.456
UGCUUUGAAAAUACCGGAGAGCUCAUUCUCCAGUCCGGCUCUUUCUCCUUCCAGAACUUCAUAGAGAUUUUCACCGAUCAAGAGAUCGGGGAGUUACUAAGCACCACCCAUCCUGCCAAC	0.575
GCAGAAGGAACUUUGGGGUGCAGCCAGGACCCGGUAGGCCUGAGCCUCAACUCUUCAGAAAAUAGUGUUUUUAAUAUUCCUCUUCAGAAAAUAGUGUUUUUAAUAUUCCGAGCUAGAGCU	57.8
GGUGGGGAGGGCAAUGUGGGGGCAGGGGAACAUGUCAUUGUGAUGACUUUUUUGAUAUUCAUUAGAAACAAUACAUCCUUUCUGAGAUAUUUACAGUAUUAUUAAAAAAUGAAAAAGGUU	0.715
UUGAAACAAGUUCUCGGCCAGAUGGUGAUUGAUGAAGAGCUGUUGGGAGAUGGACACAGCUAUAGCCCUAGAGCUAUUCAUUCAUGGUUGACAAGAGCCAUGUACAGCCGCCGCUCCAAG	0.16
UCUAUUGCUACAAGAGAGGGAGUUGCUGUUCUGUAUUCUAAACUGGUUAGCAAUAAGGAAGUAGUACCUUUGCCCCAACAAGUUUUAUGCCUCAAAGGACCACAGUUGCCAGACUUUGAA	0.154

Other studies, line by line
Molecule	target	test	test system	setting	scale	endpoint	value
PhoQ, residues 284 288 289 292 302 303 AAQSYM	PhoP, residues 12 14 15 18 19 SPWRL (Escherichia coli, UniProt P23836)	Sort-seq, item: YFP reporter	E. coli	PhoQ-PhoP variant library, together with: 10 µM Mg2+	relative to: high Mg2+ state, higher = stronger signaling	fold induction	0.981

A few entries again (sample 3):
Oligonucleotide	bound/input enrichment [ratio]
UCUAUUGCUACAAGAGAGGGAGUUGCUGUUCUGUAUUCUAAACUGGUUAGCAAUAAGGAAGUAGUACCUUUGCCCCAACAAGUUUUAUGCCUCAAAGGACCACAGUUGCCAGACUUUGAA	0.154
GCAGAAGGAACUUUGGGGUGCAGCCAGGACCCGGUAGGCCUGAGCCUCAACUCUUCAGAAAAUAGUGUUUUUAAUAUUCCUCUUCAGAAAAUAGUGUUUUUAAUAUUCCGAGCUAGAGCU	57.8
